# Measured values collected from several papers.
# Every numbered part comes from another study and shows a few of its results, in no order. Changes are numbered by the printed parent chain.

# Set 1 — technique: RNA Bind-n-Seq; molecule type: RNA; matrix: in vitro; concentration: 200 nM; setting: whole 134-nt RNA, ends assumed; added: 150 mM LiCl; relative to: input library; reading: higher = stronger binding; library: 7-deaza-guanosine replaces G
# Target: Ras GTPase-activating protein-binding protein 1, full length (G3BP1, Homo sapiens, UniProt Q13283)
# Sequence of UniProt Q13283 (whole entry, looked up): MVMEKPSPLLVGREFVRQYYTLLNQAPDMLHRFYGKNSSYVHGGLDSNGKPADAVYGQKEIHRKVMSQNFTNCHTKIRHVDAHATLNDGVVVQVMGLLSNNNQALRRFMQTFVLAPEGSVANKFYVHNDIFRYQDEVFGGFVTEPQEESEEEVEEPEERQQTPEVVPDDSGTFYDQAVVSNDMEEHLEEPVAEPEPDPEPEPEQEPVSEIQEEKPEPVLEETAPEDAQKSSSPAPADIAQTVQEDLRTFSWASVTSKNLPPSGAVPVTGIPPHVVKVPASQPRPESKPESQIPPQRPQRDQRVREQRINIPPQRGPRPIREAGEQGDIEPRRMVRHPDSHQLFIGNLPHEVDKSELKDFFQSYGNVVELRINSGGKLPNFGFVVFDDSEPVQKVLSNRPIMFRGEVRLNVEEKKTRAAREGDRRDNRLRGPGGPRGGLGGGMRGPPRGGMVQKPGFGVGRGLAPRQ
# Shared flanks, not repeated: GGGAGUUCUACAGUCCGACGAUC … UGGAAUUCUCGGGUGUCAAGG
Strand,log2 enrichment
UCCUCAAGUCCUGUGCUACACAUCGUAUGUACCGAAUCGGAGGAAAGGAGGAAAGUAUUAUGUUACGCCGUUCGGAUCUGCACUUCCAGC,-1.33
UGGCCCUGAUGGCAUGCGGGGAGGAAGAGGUGGCCUCAUGGAUCGUGGUGGUCCCGGUGGAAUGUUCAGAGGUGGCCGUGGUGGAGACAG,-0.105
ACCAUGCAGGUGGGCAUCUUUGGGAAGUGGGGCAGGGGGGGGAUAGGGAGGGGGGUAACACUUUGGGAACAGGUGGUCCCAGGUCGUUUC,0.013
UCAAGUCCUGUGCUACACAUCGUAUGUACCGAAUCGGAAAAAAAGGUGGAAAGGAAAGUAUUAUGUUACGCCGUUCGGAUCUGCACUUCC,-0.559
CCUCAAGUCCUGUGCUACACAUCGUAUGUACCGAAUCGGGUUGGUUGGGUUGGAAAGUAUUAUGUUACGCCGUUCGGAUCUGCACUUCCA,0.154
AAGUCCUGUGCUACACAUCGUAUGUACCGAAUCGGGAAAAAAAGGGUUUGGGAGGGAAAGUAUUAUGUUACGCCGUUCGGAUCUGCACUU,-0.911
CCUGUGCUACACAUCGUAUGUACCGAAUCGGUUUUUUUGGGGUUUUUUUGGGUUUUUUUGGAAAGUAUUAUGUUACGCCGUUCGGAUCUG,1.38
UAGUGAUGAAAAAUUUCUCCCUUCUAGGUUUCCCUUGGGGGCUUUGAAAUAACACCACCAGUGGUCUUAAGGUUGAAGUGUGGUUCAGGG,-1.35

# Set 2 — target: CCNB1, cyclin fold, Cln2 fusion (human); technique: yeast growth competition, sequencing; matrix: yeast; setting: weak parent motif; relative to: not given; reading: higher = stronger binding
# Starting sequence: CDKN1B docking peptide (human); PSACRNLFGPVDH
Substitution,normalised enrichment score
PMACRNLFGPVDH [S2M],0.118
PIACRNLFGPVDH [S2I],-0.0699
PSACRNLFGPVDI [H13I],0.13
PSADRNLFGPVDH [C4D],0.193
YSACRNLFGPVDH [P1Y],0.614
PFACRNLFGPVDH [S2F],0.622
PSACRNAFGPVDH [L7A],0.0518
PSACRNLWGPVDH [F8W],0.394
PSACRFLFGPVDH [N6F],0.406
PSACRNTFGPVDH [L7T],-0.156
VSACRNLFGPVDH [P1V],0.395
PSACPNLFGPVDH [R5P],0.0331
PPACRNLFGPVDH [S2P],0.971
PSACRNLFSPVDH [G9S],-0.179
PSACRNLEGPVDH [F8E],0.146
PSAKRNLFGPVDH [C4K],0.113
PSACRNLFGPWDH [V11W],1.52
PSACRNLFGSVDH [P10S],0.522

# Set 3 — technique: DHFR PCA, deep sequencing; matrix: yeast; added: (+)-ABA 1.4 µM; relative to: wild-type fitted maximum; reading: higher = stronger binding
# Target: ABI1, truncated, D143A, DHFR fusion (Arabidopsis thaliana)
# Setting: methotrexate growth selection, single substitutions
# Starting sequence: PYL1, truncated, DHFR fusion (Arabidopsis thaliana); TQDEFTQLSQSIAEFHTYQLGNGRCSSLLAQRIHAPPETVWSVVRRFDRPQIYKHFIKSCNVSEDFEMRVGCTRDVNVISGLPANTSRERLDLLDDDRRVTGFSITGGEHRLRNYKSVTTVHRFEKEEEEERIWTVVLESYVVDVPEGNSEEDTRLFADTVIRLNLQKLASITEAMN; partner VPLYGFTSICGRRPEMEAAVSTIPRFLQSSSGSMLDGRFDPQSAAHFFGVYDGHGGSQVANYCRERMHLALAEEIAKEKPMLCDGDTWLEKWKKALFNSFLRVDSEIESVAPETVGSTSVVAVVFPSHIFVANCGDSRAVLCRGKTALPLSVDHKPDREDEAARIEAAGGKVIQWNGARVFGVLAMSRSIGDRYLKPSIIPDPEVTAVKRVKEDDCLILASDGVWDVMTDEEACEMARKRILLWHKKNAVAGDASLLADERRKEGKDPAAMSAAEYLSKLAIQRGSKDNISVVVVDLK
Substitution,relative binding score
L20C,68.9%
R74V,-5.17%
K54W,-7.89%
R24N,20.4%
V145L,-10%
E131H,77.4%
N77Y,62.7%
N77C,65.8%
I57T,-11.1%
F66I,15.2%
N61R,71.4%
Q2L,78.8%
K54P,2.36%
E147S,34.2%
E67M,31.1%

# Further values, each from its own experiment
Molecule,target,test,system,setting,scale,endpoint,result
"PhoQ, residues 284 288 289 292 302 303 SACGEM","PhoP, residues 12 14 15 18 19 TPWLV (Escherichia coli, UniProt P23836)","Sort-seq, measured: YFP reporter",E. coli,"PhoQ-PhoP variant library, added: 10 µM Mg2+","relative to: high Mg2+ state, higher = stronger signaling",fold induction,2.99

# A few entries again (set 2):
Substitution,normalised enrichment score
PMACRNLFGPVDH [S2M],0.118
PIACRNLFGPVDH [S2I],-0.0699
PSACRNLFGPVDI [H13I],0.13
PSADRNLFGPVDH [C4D],0.193
